Results gathered from unrelated publications.
Parts stem from different laboratories: compare values within a part only. Positions count from the first letter of the parent shown.

Block 1 — technique: universal PBM; molecule type: double-stranded DNA, one strand shown; matrix: in vitro; concentration: not given; reading: higher = stronger binding
Target: Sal-like protein 4, full length isoform B (SALL4, Homo sapiens, UniProt Q9UJQ4-2, residues 1-616)
Setting: 8-mer, flanks averaged, mean of replicates
Oligonucleotide | E-score
GCTACAGC | -0.23
ACATGCAT | 0.141
GTCCCTCA | -0.14
TATCATGA | 0.317
ATCATTGG | 0.163
AGTAGCAA | 0.076
GGCGATAC | -0.0237
ACCAAGGG | -0.0827
GCTCTTAA | 0.0429
ATCTAGGG | 0.11
AGTGCGGG | -0.181
AGGTCTTG | -0.163
AAGCTGGT | -0.0341
ACGGTCTC | -0.0386
CGAGATAC | 0.159
CATGGTCG | -0.126
ATTACCAG | -0.0466

Block 2 — target: CCNA1, cyclin fold, Cln2 fusion (human); technique: yeast growth competition, sequencing; matrix: yeast; setting: weak parent motif; baseline: not given; reading: higher = stronger binding
Starting sequence: KIF20B docking peptide (human); KRAKRKLYTSEIS; partner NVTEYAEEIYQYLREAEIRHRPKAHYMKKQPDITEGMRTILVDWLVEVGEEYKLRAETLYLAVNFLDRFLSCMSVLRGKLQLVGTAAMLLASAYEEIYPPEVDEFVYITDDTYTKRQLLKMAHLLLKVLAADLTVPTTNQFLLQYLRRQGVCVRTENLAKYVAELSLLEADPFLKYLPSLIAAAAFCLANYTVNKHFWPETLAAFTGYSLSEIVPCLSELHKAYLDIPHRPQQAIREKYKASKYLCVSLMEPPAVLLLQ
Substitution | normalised enrichment score
R5A | 0.00957
K6A | 0.271
I12A | 0.575
T9A | 0.331
Y8A | -0.00183
S10A | 0.0706

Block 3 — technique: DHFR PCA, deep sequencing; matrix: yeast; added: (+)-ABA 0.39 µM; baseline: wild-type fitted maximum; reading: higher = stronger binding
Target: ABI1, truncated, D143A, DHFR fusion (Arabidopsis thaliana)
Setting: methotrexate growth selection, single substitutions
Starting sequence: PYL1, truncated, DHFR fusion (Arabidopsis thaliana); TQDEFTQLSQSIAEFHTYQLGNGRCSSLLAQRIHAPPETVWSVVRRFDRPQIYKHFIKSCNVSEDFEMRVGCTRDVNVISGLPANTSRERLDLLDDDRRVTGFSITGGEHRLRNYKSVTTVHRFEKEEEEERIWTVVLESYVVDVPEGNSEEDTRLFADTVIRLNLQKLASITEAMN
Substitution | relative binding score [%]
L164T | 66.8
T17C | 5.91
Q7R | 33.7
E14T | 13
V136H | -11.9
R69P | -3.57
A30H | 29.2
N61M | 46.2
H16G | -5.39
W134I | 42.2
E147F | 18.8
R49Q | 58.5
T39N | 10.2
V136M | 30.1
E38Y | -1.74
H122G | -4.12
R99E | -0.248
V40N | -5.49
S87W | 26.1
A13V | 20.9
R155L | 16
V137E | -1.96
D153Q | -8.7
I52A | 46.9
L29E | -5.41

Block 4 — technique: RNA Bind-n-Seq; molecule type: RNA; matrix: in vitro; concentration: 365 nM; baseline: no-protein control; reading: higher = stronger binding
Target: RNA binding protein fox-1 homolog 2, RRM domain, GST-SBP tag (RBFOX2, Homo sapiens, UniProt O43251-10, residues 100-194)
Setting: natural RNA segment, single round, ends assumed
Construct (chain): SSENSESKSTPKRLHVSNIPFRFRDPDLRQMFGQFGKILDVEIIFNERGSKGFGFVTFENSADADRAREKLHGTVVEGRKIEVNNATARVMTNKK
Oligonucleotide | RBNS enrichment (R)
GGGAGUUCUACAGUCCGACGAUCUCUACCACAAAUAUACUUACCCAAGGGCUAAUAGUAAUACUCGAUUAAAAAUGCAGAUGCCUUCUCUUUUGUGUAUUGCGUGUCUGGUCUCAUUCUGACUACAGAUAUGGUGGAAUUCUCGGGUGCCAA | 0.425
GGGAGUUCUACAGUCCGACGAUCCAAGGUGUCUCCUCUCAGUGCAGGGACAUGCCUGCUCUGUGGGGCAGGCGAGGACCCUGAAUCAUUUGGAGCCCAGAAGGAGGCAGACUGGCCAGGUCUCACCACCUCAGUGGAAUUCUCGGGUGCCAA | 0.19
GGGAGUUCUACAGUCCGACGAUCUAUGGCUAUGUUGCUUAAGAUUCUCAGGGAUAGACUUAUUUUUGUUAACUUCAUUCUUUCCUGCUGUUAGGAACAUAGGCCUAAAAUUGUCUCUUGAGUUUGCUCACCCUUGGAAUUCUCGGGUGCCAA | 0.891
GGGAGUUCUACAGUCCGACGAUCCACCAACAACAAACGUGUUUGAAUUCACCUUACCAAUAUUAAUCCCAGCGUGUGUAAAACAGAACAGUAACUCUAUGUGACCCCAGAUAACAUUUUGUAACAUUGUGCUUUGGAAUUCUCGGGUGCCAA | 1.53
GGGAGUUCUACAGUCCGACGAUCUAGCCAGGAAAAUAGGAAUCCCUGGUGGGUUUCUGAUUCCUGUGCUGAGAAGGAGAGUCACAGGUCCUGGAGAUAGAAAUGGAGGUGGCCUGCUGAUAAGAUACCUGCUGUGGAAUUCUCGGGUGCCAA | 0.697
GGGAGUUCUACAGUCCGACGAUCUCAGGAGAGUGAGGCACAGUGUCCAUCAUGCCAUUUAAUCUUGUGCCUGCCCUUUCCAGCCUCUUCAAAAGAUGCAUCCAAACAACAGGUCUGCAUUUGAUGUAAUGCCUUGGAAUUCUCGGGUGCCAA | 0.477
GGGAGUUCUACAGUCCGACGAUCAAAAGCUUCCUAUAGUACAUUGGUAUGGAUUAAAUACAUAAAAUAUUCUAUUAGACUUCAUGCUGUAAAGAGAACAUGUUAUUUUGCCUCUAAACUUUGAUUUAUUGAAGUGGAAUUCUCGGGUGCCAA | 0.476
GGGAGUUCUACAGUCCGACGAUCCCUGCCUUUUCCAGGGGUAGGUCUGUUUCUUUGCUGUUCUAUUGUCUUGAGAGCACAGACUAACACUUACCAAAUGAGGGAACUCUUGGCCCAUACUAAGGCUCUUCUGGUGGAAUUCUCGGGUGCCAA | 1.85
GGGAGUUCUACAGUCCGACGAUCCAAAUUCAAACUAAAGGGGAAAGAUCAAACCCCUUCCCUUCCUACCUGUUUUCUGAGCUGGCUGACUUGCCAGCCACAAGCUGCUCUUGCAGAGUUCUUACCAUUCCUGUUGGAAUUCUCGGGUGCCAA | 0.448
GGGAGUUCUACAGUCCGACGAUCAUAACUUUGUAAAAAGCAUGUAUGUAUUUAUAGUGUUUUAGAUUUUUCUAACUUUUAUAUCUUAAAAGCAGAGCACCUGUUUAAGCAUUGUACCCCUAUUGUUAAAGAUUUGGAAUUCUCGGGUGCCAA | 4.05
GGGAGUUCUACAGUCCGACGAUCCCACUUGUCAAGAUUUCCCCUUUAGCGUGCUUGCUCCUCACCCCACCUGUACCUCCCUAUGUCCCCAUCCUUGCCCAGUCUCGACGUGCACCAAGGGCACAAGAGUGGCAUGGAAUUCUCGGGUGCCAA | 2.3
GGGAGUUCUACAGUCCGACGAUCCCGGACCCCGUUGUGAGCCGGCCUCCUGUCUGCAUGCCCCCUGUGGCCACCAGGCUCCGAGGGGCCGUGGUGACUCUUGAUCAAAGAGCACAGUGAACUGUCCCUUCUGAUGGAAUUCUCGGGUGCCAA | 7.58

Block 5 — technique: protein-binding microarray; molecule type: double-stranded DNA, one strand shown; matrix: in vitro; concentration: 0.8 µM; setting: whole 60-bp probe, no competitor; reading: higher = stronger binding
Target: Centromere-binding protein 1, full length, N-terminal tag (CBF1, Saccharomyces cerevisiae, UniProt P17106, residues 1-351)
Chain of UniProt P17106 (whole entry, looked up): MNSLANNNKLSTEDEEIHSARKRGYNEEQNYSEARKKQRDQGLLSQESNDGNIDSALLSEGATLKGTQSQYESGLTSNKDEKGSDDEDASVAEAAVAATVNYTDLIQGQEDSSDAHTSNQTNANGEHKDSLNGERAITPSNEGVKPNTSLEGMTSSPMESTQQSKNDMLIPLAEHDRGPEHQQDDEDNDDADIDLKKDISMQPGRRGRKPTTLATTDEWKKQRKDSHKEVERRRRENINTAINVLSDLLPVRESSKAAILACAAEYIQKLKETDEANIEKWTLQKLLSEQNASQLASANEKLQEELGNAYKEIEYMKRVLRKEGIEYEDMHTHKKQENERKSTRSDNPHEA
Oligonucleotide | fluorescence intensity [a.u.]
CTAAAATATTTATGTCACGTAGCGAGCTTACTTTTCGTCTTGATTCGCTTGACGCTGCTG | 835
CTATAAAGAAGAAAACATCAGCCTCACAATTACTTCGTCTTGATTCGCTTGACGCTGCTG | 498
GAATGCATAATGACGGACGTGACTATAAATTTCTAGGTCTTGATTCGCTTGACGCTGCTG | 961
GAAAATTCAATTCACGTGAGGACAATAACACTATAGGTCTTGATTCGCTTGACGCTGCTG | 7350
CTAACAGCATATAATCTGATGACTGAGAGGTCTTTCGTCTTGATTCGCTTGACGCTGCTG | 520
CTACGCAACGAAGGGGAGGTGACCGTGCTTGAATTCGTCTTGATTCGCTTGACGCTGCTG | 532
GAAATTTTGTTGTAGCTCGTGGAGTTATCCATTTAGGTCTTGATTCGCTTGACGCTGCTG | 542
CTAGGACGGCGGCGTCACCCCAACGCAAAAGAGTTCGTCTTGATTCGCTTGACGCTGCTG | 516
CTACCCGTCAGCGATGGTGACGTAAACGACTTTTTCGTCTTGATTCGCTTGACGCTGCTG | 482
CTATCTGACCATGGTGACATAACCAAAGTGTTCTTCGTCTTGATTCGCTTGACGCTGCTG | 526
CTAAGTTGCTTGGAGGAGGTGGTGGAGGCGGAATTCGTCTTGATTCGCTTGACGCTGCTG | 516
CTACTGACGCCTTCGCACGCGTCAATGAAAAGGTTCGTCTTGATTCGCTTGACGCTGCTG | 568
CTAGTGCTCTTGGATCACGATCCCTCACTTGTATTCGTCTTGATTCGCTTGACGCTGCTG | 659
GAAATAGCTGAGCATCATGTGAGTAAACGAGTATAGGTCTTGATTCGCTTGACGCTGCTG | 857
GAATTTTTTCAGTCGCTCGTGGTCTATCGCCAATAGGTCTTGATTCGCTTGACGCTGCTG | 593
GAAGTGTTGCGATGTCTCCTGACCTCACTATTTTAGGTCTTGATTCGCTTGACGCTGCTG | 826
GAAACATTTAACTATAACATCAGTCGTATGTTATAGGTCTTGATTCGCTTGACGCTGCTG | 540
GAACATGTCACTATGCACGTTGTGGGACAATTATAGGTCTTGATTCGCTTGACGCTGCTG | 629
CTAGTAATAGATATTCACATGTAAAAAAAGGTATTCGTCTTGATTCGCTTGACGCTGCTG | 658
CTATAAAAAGTTGACGTCAGCATACAATTTGAATTCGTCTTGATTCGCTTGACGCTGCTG | 564
CTAGTTTCATCTGGAAAAGATGGAGACTGAAAATTCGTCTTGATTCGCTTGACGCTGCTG | 543
CTAGCTTATGTAAATGGCGTGTCTGCGTAAACTTTCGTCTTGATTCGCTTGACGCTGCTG | 527
GAAATATAAAGGGTACTCGTGCAGACGGACATCTAGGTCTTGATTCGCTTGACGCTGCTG | 609

Block 6 — target: TEF, bZIP domain (human); technique: DHFR protein complementation; matrix: yeast; baseline: wild-type JUN-FOS pair; reading: higher = stronger binding
Setting: single substitutions, most at no-binding floor
Starting sequence: JUN, bZIP domain (human); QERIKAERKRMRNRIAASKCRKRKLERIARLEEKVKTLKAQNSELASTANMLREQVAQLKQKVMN; partner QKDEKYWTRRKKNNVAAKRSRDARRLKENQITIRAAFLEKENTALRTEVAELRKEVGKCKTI
Substitution | binding fitness [natural log]
I28D | -1.48
K36E | -1.27
S47W | -1.3
Q41H | -1.46
A57V | -1.44
Q55W | -1.5
E44G | -1.46
L52H | -1.51
V56K | -1.35
N42C | -1.49
N42H | -1.57
S47M | -1.5
N42S | -1.48
Q58P | -1.44

For quick reference, copied from above (block 6):
Substitution | binding fitness [natural log]
Q55W | -1.5
V56K | -1.35
I28D | -1.48
N42H | -1.57
K36E | -1.27
E44G | -1.46
A57V | -1.44
S47W | -1.3
Q41H | -1.46
